Measured values gathered from unrelated publications.
Lines come from different studies, so protocols differ.

SMILES	test	system	conditions	solubility
O=c1c2ccccc2[se]n1CCCCn1[se]c2ccccc2c1=O	HPLC	water	24 h, 25 °C	1 to 3 µg/mL
CC12C(=O)C(C)(C(c3ccccc3)=C1c1ccccc1)C1(Br)C(=O)N(CCC(=O)NCCN)C(=O)C21 (centres unmarked)	HPLC	water	20 °C	3200 µg/mL
O=P([O-])([O-])Oc1ccc(-c2cc(=S)ss2)cc1.[Na+].[Na+]	HPLC	water	24 h, 25 °C	1940 µg/mL
C(#Cc1cncc(OC[C@@H]2CCN2)c1)c1ccccc1		aqueous buffer	24 h, pH 6.8	604 µg/mL
CC(C)[C@H](NC(=O)[C@H]1NC(=O)[C@H](CO)NC(=O)[C@H](CC(N)=O)NC(=O)[C@@H](N)Cc2c[nH]c3cc(ccc23)C1C(N)=O)C(=O)N[C@H]1Cc2cn(cn2)C(c2ccc(O)cc2)[C@@H](C(=O)N[C@@H](CCCNC(=N)N)C(=O)N[C@@H](Cc2ccccc2)C(=O)O)NC(=O)[C@H](CO)NC1=O (some centres unmarked)		water		> 200000 µg/mL
COc1cccc2c1C(=O)c1c(O)c3c(c(O)c1C2=O)CC(O)(C(=O)CO)CC3OC1CC(NC(=O)OC2C=CCCC(C)(C(=O)NCC(=O)O)CC2)C(O)C(C)O1 (centres unmarked)		PBS		28000 µg/mL
C[C@]12C(=O)[C@](C)(C(c3ccccc3)=C1c1ccccc1)C1(Br)C(=O)N(CCN)C(=O)C12 (some centres unmarked)	HPLC	water	8 °C	3900 µg/mL
O=C1C(O)=C(Nc2ccccc2Cl)C(=O)c2ccccc21		water	12 h	0.003 mM
O=C(CN1CCN(c2cc3c(cc2F)c(=O)c(C(=O)O)cn3C2CC2)CC1)Nc1ccc(Cl)cc1		water		22.7 µg/mL
C[n+]1ccc(-c2cc[n+](C)cc2)cc1	absorbance	water	pH 7	2690 mM
CC(C)(C)c1ccc(COc2cc3c(=O)c(C(=O)NCCNCCO)cn(Cc4ccccc4)c3cc2Cl)cc1	shake flask	PBS	24 h, pH 6.5, 25 °C	< 0.005 mM
